Published values from different studies.
Numbered parts are unrelated; each lists some results of a single study. Substitutions count along the parent as printed.

Study 1 — technique: universal PBM; form: double-stranded DNA, one strand shown; medium: in vitro; concentration: 600 nM; direction: higher = stronger binding
Target: Sal-like protein 4, full length isoform A (SALL4, Homo sapiens, UniProt Q9UJQ4, residues 1-1053)
UniProt Q9UJQ4, sequence (whole entry, looked up): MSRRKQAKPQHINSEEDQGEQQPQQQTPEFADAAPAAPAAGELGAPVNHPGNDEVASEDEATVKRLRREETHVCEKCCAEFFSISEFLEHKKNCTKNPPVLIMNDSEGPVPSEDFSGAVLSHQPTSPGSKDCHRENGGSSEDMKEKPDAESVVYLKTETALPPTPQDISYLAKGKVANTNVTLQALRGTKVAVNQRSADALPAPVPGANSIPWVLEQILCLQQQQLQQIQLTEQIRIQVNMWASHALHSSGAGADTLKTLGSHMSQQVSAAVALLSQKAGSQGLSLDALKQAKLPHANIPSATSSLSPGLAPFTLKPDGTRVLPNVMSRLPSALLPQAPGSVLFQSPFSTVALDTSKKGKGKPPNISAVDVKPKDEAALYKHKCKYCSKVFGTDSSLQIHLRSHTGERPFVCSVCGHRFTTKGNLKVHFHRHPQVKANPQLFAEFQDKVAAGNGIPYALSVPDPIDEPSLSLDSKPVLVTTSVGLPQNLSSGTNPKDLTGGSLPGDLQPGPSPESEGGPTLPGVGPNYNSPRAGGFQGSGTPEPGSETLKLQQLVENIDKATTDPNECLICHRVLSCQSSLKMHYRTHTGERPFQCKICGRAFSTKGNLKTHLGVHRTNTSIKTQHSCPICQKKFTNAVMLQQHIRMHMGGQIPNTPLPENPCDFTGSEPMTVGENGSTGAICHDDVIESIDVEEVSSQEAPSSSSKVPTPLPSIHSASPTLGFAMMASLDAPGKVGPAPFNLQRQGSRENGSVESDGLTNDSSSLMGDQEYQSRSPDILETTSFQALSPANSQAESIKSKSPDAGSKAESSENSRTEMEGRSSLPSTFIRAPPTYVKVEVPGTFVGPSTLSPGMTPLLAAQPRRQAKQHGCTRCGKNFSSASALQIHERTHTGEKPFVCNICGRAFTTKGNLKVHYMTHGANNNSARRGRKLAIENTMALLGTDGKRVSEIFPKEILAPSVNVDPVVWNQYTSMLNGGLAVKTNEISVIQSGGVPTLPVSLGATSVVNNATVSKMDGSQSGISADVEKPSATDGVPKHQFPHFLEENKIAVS
Setting: 8-mer, flanks averaged, mean of replicates
Sequence | E-score
TGGCTAAA | 0.171
AAAGATTC | 0.158
ACGAGCCC | -0.234
ACTTGAGG | -0.155
ACCTACTC | 0.00487
ACGTCCTC | -0.0875
CTTGTGAA | 0.0924
ACAACAGG | -0.000345
CAGCCTAC | -0.132
AATAGAAT | 0.303
ACATTCGT | 0.123
CCTATTAC | 0.189
AATTTACC | 0.129
GATTATAC | 0.19
GCATTCAC | 0.0905
CAGAGGTA | 0.039
TGTCTTAA | 0.203

Study 2 — technique: RNA Bind-n-Seq; form: RNA; medium: in vitro; concentration: not given; reference: input RNA pool; direction: higher = stronger binding
Target: RING finger protein unkempt homolog, zinc fingers 1-6, GST-SBP tag (UNK, Homo sapiens, UniProt Q9C0B0, residues 30-357)
Setting: RNA with constant flanks, human-mouse chimeric sites, ends assumed
Target sequence (chain): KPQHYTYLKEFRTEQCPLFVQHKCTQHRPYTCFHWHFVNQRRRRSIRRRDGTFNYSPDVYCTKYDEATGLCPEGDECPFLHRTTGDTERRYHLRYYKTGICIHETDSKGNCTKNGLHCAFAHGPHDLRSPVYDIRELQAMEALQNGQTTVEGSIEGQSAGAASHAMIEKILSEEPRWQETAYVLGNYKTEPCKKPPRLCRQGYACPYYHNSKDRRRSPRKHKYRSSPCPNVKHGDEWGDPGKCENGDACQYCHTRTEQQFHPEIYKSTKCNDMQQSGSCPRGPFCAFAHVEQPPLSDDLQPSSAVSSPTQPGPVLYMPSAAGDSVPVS
Sequence | bound/input enrichment
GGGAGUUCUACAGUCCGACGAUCGUAAUGGACGUCAACACUGCUCUACAAGAGGUUCUGAAGACCGCCCUCAUCCACGAUGGCCUAGCACGUGGAAUUCGCGAAGCUGCCAAAGCCUUAGACAAGCGCCAAGCCCAUCUGUGUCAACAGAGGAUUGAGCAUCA | 0.647 ratio
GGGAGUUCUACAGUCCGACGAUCAGUUCCAAACCACCAUCAGAAAUGAAGAUGAGAUUACCCAGACGAGCCAAAACAGCUGCGCUACAGAAAAGUAAACUUAACCUUGCAGAGUUCCUUAAAUGAAGAUCAAGUUAAGAGAGCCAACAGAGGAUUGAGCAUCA | 0.383 ratio
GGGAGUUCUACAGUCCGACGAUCAAAGCCCAAGUAUUUUGAAAAAACUCGAACAGAUUUGACAAGGGUAGCCAGCUUGGAGUCUAGCAAUUUGCCAAUGUGUUUACCAAUCUGGGGGCUUUGUUUUUCUUUCUUCUUUCAAAUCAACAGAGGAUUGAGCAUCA | 0.438 ratio
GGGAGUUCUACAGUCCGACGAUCACACAAUAUGAGACCAACAGCAUGGACUUCAAAGUUGGGGCAGAUGGGACAGUCUUCGCCACUAGGGAGCUGCAGGUCCCCUCAGAGCAGGUGGCGUUCACGGUGACUGCAUGGGACAGCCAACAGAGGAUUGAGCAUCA | 0.267 ratio
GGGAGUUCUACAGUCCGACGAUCAACAGAUUGUCUUUAAGGUCAACGUAGGAGAAUGCUGGGGUGAUCAUUGUUGCCCAUGUGCCUUCUGACUGAGCUUUAAUGCUGUUCCAUGUUACAUCUUUCCUUCAUUGCAUAUUUGUUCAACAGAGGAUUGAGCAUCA | 0.131 ratio
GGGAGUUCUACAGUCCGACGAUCUGUGAACUGAAAGGUGUGAUCUAAAAAAAACAUGAUUUUUCCUGGCACAUAUUCCAAAGCAAAGACUUUGUUGCCUGCUGCUUAUUGUCUAAUUUACAGGGAUAUUUAAUUUUGUCAGGUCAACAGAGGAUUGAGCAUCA | 0.191 ratio
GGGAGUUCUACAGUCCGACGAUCGAAUCCUACUCAGGCGGAUUUUGCAACACCAAGCUCACAGCAGCAGCAUCUUAGUCACAGUAGGGUAGUUUUGGGGCUCUGUGGCCAGGGUUUUAUUCAUGUGCAGGUUUUGAAAAUGUACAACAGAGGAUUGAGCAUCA | 1.25 ratio
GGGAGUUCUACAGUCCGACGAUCUUGCCUGAGAACGAGGAUGAGCUGGAGAGCACCAACAGGCGCUACACCAAGAGGGACUGCAGCACUUUCCUCAGAACUAGUGAGACGGGCAUCGUGGACCAGGUCAUGGUAACUCUCAACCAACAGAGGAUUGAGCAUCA | 0.0824 ratio
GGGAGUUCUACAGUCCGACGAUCUCCCUGUUGCUGAAUAAAUGGCUUGUAAAGAAGUUUUUCCAAGCUGUAACCCAUGCUGUUAUUAUAGUUGCUGCAAAAUGUUCUUCCUGAUAUUGAUUUUAUUUGUUAACUGAAGGUCUCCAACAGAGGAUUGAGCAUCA | 0.57 ratio
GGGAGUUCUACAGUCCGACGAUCAAAGAGUGGAUAGAGUGUGCACACGGGAUCGGUGGGACCCGGGCGAAAAAGGAGUGCAAGAUAGAGUUCGAUGACUUCGUAGAGUGUUUGCUUCGGCACAAAACGAUGAGGCGAAUGCAUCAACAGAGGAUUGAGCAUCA | 0.325 ratio
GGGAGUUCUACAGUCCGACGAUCGCUCUUGGGAAUGUAAUCAGCGCCUUGGGGGACAAGAGCAAGAGAGCCACCCAUGUCCCCUAUAGAGACUCUAAGCUGACAAGACUCUUGCAGGAUUCCCUCGGGGGUAACAGCCAAACCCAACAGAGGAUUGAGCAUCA | 0.195 ratio

Study 3 — technique: RNA Bind-n-Seq; form: RNA; medium: in vitro; concentration: 365 nM; reference: no-protein control; direction: higher = stronger binding
Target: RNA binding protein fox-1 homolog 2, RRM domain, GST-SBP tag (RBFOX2, Homo sapiens, UniProt O43251-10, residues 100-194)
Setting: natural RNA segment, single round, ends assumed
Target sequence (chain): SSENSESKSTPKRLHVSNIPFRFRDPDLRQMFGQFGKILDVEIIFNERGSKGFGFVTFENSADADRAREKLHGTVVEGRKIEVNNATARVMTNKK
Sequence | RBNS enrichment (R)
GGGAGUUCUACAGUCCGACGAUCUAUAUAUAUACUUCUAUUUGUGGGUACUUUAGGAAAAUGCCCUUUGGUCACUGUAAAUAUGAAUUGUGACCCCAUCCCUUCCCGCAUGAGCCCAGUGAGUCCCAGCAGCUUGGAAUUCUCGGGUGCCAA | 4
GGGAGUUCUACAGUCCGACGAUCAGGUCAGGAUGUCUGCAGUUGGAGAUGUAAAUAUUUUGUACAGUAAAUAAAAUGCCUACAAUAAUAAGAGCUAAAUGAGUGUUUGAGUGGGGGGUGGGACAAUGCUUACAUGGAAUUCUCGGGUGCCAA | 1.66
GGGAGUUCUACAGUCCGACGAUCACCAUCAGAUAACUGUAUUUUGUCAGGUGCAAUAAAAACAAAAUUAAAACCCAAAUCAUCAAGAAAACCUGUAUUCCUGGCUUCCUUGUAUACACAUGAUGUGACUAGAGUGGAAUUCUCGGGUGCCAA | 0.309
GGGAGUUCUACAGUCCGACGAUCGAGAGGGCUCUGAAAGGUCCACAGAGUUUGACAGACACGAAAGCAACCCAUUGCCCCGUUGACCUGACCUGGAAGAAGACUGUCAGCAAAAGGAAAAUACCAGAAUAUCUUGGAAUUCUCGGGUGCCAA | 0.244
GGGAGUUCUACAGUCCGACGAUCAUAUUACUUAUUUAUCCCAGUAUUCCUAGCCUGUCAACAUAAUAAAUAUCGGAACAAAACCUGGUAACGUUAGUGUGGCACUGGUUUCUGCUAAGUGUUGAGUGACACGAUGGAAUUCUCGGGUGCCAA | 0.426
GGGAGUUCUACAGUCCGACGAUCGGACUUCCCUCCAGCUGCCUCUUCAUCUGGGAAUGAGCUAAGCAAGGCUGAGCCUCCUCCUGUUGCUGAAAUAAUGAUGAUAUAAAGGCUGGAUUUGGAGUUUGUAUCCCUGGAAUUCUCGGGUGCCAA | 0.435
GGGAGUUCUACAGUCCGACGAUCUGGUGUGUGUAUUAGAAUCCCUUCCUGCCUUGUUUCAUGGCAGUGAAAUGCCUCUUGGUCCUGUCCAAGUGUAUCUUUCACUGAUUUCUGAAUCAUGUUCUAGUUGCUUGUGGAAUUCUCGGGUGCCAA | 1.6
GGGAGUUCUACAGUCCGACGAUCGGAAGCAUUUCUUCAUUGAUUUAAAUCAGUAUGAAUAUUAUAUGCCUAAAUAAAAAAUUUGCACAGGUAAAUUCUCUCACUUGUGAAUGGGAGAAGCUGCCCCAGGAAUCUGGAAUUCUCGGGUGCCAA | 1.29
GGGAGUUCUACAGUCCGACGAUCGUUGGACCAAGGAGAAAGCCCUUUGGAGAAACUGGACCCUAGUUCAGUUUAGAUCUCAAAUAUAGGCUGAAAUCUCUUACCAAAGUGCGUUCCAGAUAAAAAUGAGACUUUGGAAUUCUCGGGUGCCAA | 0.337
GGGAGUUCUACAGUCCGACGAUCCUGCACUCCAGCCUGGGCAACACAGCGAGACUCCGUCUCGAGGAAAAAAAAAGAAAAGAUACGUGCCUGCGGUGAGGAAGCUGGGCGCUGUUUUCGAGUUCAGGUGAAUUUGGAAUUCUCGGGUGCCAA | 0.435
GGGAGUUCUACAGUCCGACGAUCUGCUUGUCACCCAGUUGCCUUUAAACCAAAUUCUAACCAGCCUAUCCCCAGGUAGGGGGACGUUGGUUAUAUUCUGUUAGAGGGGGACGGUCGUAUUUUCCUCCCUACCCUGGAAUUCUCGGGUGCCAA | 0.359
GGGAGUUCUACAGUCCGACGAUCUCUCCCUCCCCUCUCAGAACAUACUGAUUGGGAGGUGCGUGUUCAGCAGAACCUGCACACAGGACAGCGGGAAAAAUCGAUGAGCGCCACCUCUUUAAAAACUCACUUACUGGAAUUCUCGGGUGCCAA | 0.559

Study 4 — technique: DHFR PCA, deep sequencing; medium: yeast; together with: (+)-ABA 2500 µM; reference: wild-type fitted maximum; direction: higher = stronger binding
Target: ABI1, truncated, D143A, DHFR fusion (Arabidopsis thaliana)
Setting: methotrexate growth selection, single substitutions
Parent: PYL1, truncated, DHFR fusion (Arabidopsis thaliana); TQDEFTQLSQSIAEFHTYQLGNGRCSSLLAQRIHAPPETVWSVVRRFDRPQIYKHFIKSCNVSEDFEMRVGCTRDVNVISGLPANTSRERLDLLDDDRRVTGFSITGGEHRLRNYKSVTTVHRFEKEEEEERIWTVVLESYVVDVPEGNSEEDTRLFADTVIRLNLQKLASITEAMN
Change | relative binding score
L8F | 114%
C72I | 93.4%
T17I | 85%
I133S | 104%
M68Q | 93.9%
K54Y | -8.02%
W41Q | -3.18%
H34I | 102%
D48T | 83.4%
G108M | 66.5%
G148W | 85.2%
E64M | 92.1%
D48E | 99.7%
P36W | 81.7%
Q10W | 90.6%
E127S | 105%
V62L | 99.8%
I33T | 77.9%
I133N | 108%
Y115K | -0.576%
L94K | 72.5%

Study 5 — technique: protein binding microarray; form: double-stranded DNA, one strand shown; medium: in vitro; concentration: not given; reference: not given; direction: higher = stronger binding
Target: Histone acetyltransferase KAT6A, winged helix 1, GST fusion (KAT6A, Homo sapiens, UniProt Q92794, residues 1-85)
Setting: 8-mer, flanks averaged, mean of 2 arrays, mostly near background
Residues (chain): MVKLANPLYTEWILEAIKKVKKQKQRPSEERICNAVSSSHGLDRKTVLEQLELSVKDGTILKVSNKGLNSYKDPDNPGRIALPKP
Sequence | E-score
AGAATGAC | -0.125
CTGAAGGC | -0.129
CCACAGAA | -0.188
GCTCCTAC | -0.0706
TCCAGCAA | -0.337
GTGGACTA | -0.11
GCGGGAAC | 0.414
AACAAGTT | -0.196
ACGGATGA | 0.0512
AACAAGAA | -0.111
CCGTCGCA | 0.43
AACTTCTC | -0.239
CGACGACG | 0.261
CTTCCCGA | 0.142
ACGTACTC | 0.101
ACTCCTCT | -0.153
GCAAGCGA | 0.0992
CCTGGTCG | -0.0174
AGTAATTC | 0.087
TGGGGAAA | -0.185
GCGTTCAA | 0.00645
CGATGTCC | 0.181
AGTGACCC | -0.0453
CCCCGCCC | 0.155
AGACGCGA | 0.0531

Repeated from above (study 5):
Sequence | E-score
CTTCCCGA | 0.142
AACAAGAA | -0.111
AGTGACCC | -0.0453
AGACGCGA | 0.0531
AGAATGAC | -0.125
GCTCCTAC | -0.0706
CCCCGCCC | 0.155
AACAAGTT | -0.196
